Results from different studies.
A part holds a random share of what one study measured. Substitutions count along the parent as printed.

Sample 1 — method: DHFR PCA, dose-response; sample: yeast; setting: Hill fit, mean, not affinity; with: (+)-ABA, dose series; direction: lower = more sensitive; quantity: ABA EC50
Target: ABI1, truncated, D143A, DHFR fusion (Arabidopsis thaliana, UniProt P49597)
Parent: PYL1, truncated, DHFR fusion (Arabidopsis thaliana, UniProt Q8VZS8); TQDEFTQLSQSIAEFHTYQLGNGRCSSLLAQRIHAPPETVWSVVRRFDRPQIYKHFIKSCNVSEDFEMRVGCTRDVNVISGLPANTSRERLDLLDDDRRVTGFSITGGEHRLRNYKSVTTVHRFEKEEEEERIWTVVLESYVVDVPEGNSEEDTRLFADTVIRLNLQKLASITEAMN
D144Y: 252 µM
Q10D: 1.75 µM
R163E: 48.5 µM
G71K: 136 µM
G102Q: 69.6 µM
V62C: 8.85 µM
E152L: 5.48 µM
V43W: 275 µM

Sample 2 — method: RNA Bind-n-Seq; form: RNA; sample: in vitro; concentration: 200 nM; setting: whole 134-nt RNA, ends assumed; with: 150 mM LiCl; relative to: input library; direction: higher = stronger binding; quantity: log2 enrichment; all molecules: 7-deaza-guanosine replaces G
Target: Ras GTPase-activating protein-binding protein 1, full length (G3BP1, Homo sapiens, UniProt Q13283)
Chain of UniProt Q13283 (whole entry, looked up): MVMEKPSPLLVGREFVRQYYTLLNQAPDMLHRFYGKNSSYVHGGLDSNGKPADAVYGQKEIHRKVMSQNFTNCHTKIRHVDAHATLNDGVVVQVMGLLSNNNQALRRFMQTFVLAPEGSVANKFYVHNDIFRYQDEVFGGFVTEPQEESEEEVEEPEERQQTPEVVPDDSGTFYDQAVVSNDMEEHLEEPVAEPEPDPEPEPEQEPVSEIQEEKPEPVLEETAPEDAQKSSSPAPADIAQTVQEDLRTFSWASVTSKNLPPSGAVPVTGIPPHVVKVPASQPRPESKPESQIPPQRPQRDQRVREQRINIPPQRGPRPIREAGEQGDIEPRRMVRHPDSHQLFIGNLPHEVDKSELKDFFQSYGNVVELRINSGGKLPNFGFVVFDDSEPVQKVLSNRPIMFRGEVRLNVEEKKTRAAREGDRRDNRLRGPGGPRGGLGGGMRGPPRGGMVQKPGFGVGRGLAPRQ
All sequences stand within: GGGAGUUCUACAGUCCGACGAUC … UGGAAUUCUCGGGUGUCAAGG
GCAGGAAGUAAAAACAAAUGGAAAUGCUUAAAAUAGUGGCAGGGGUGGGGGUUGCUAAGGAAAGGGUGGGAUGGGAGUGGGUAAAGAGUU: -0.416
UAGUCACCUACUGCCACCUUCGAAAAACACGGAGAGCACCUACCCAGAGGAGAAGGUAGAUUUGGAGUAAGCCGCCGUCGACAUAAUUCC: 0.0737
UCCUGUGCUACACAUCGUAUGUACCGAAUCGGUUUUUUUGGUUUUUUUGGAAAAAAAGGAAAGUAUUAUGUUACGCCGUUCGGAUCUGCA: -1.5
CUGUGCUACACAUCGUAUGUACCGAAUCGGGGCCCCCCCGGCCCCCCCGGGCCCCCCCGGGGAAAGUAUUAUGUUACGCCGUUCGGAUCU: 0.645
UCAAGUCCUGUGCUACACAUCGUAUGUACCGAAUCGGUUUGGGUUUGGUUUGGGAAAGUAUUAUGUUACGCCGUUCGGAUCUGCACUUCC: -0.68
ACCAUGCAGGUGGGCAUCUUUGGGAAGUGGGGCAAGGGGGGGAUAGGGAGGGGGGUAACAAAUUGGGAACAGGUGGUCCCAGGUCGUUUC: 0.00706
AGUCCUGUGCUACACAUCGUAUGUACCGAAUCGGUUUUGGGUUUUGGGGUUUUGGGGAAAGUAUUAUGUUACGCCGUUCGGAUCUGCACU: -0.157
AAGUCCUGUGCUACACAUCGUAUGUACCGAAUCGGGUUUUGGGUUUUGGGUUUUGGAAAGUAUUAUGUUACGCCGUUCGGAUCUGCACUU: -0.442

Sample 3 — method: EMSA with sequencing; form: double-stranded DNA, one strand shown; sample: in vitro; concentration: 10 and 20 nM; relative to: negative control set to 0; direction: higher = stronger binding; quantity: normalised bound fraction
Target: Hepatocyte nuclear factor 3-alpha (Foxa1, Mus musculus, UniProt P35582, residues 1-468, full length assumed)
Setting: whole designed probe, mean of two concentrations, ends assumed
All sequences stand within: GTGAGCGGTGCCCATTGATGGGGAAC … TTTCACTGGGATCGTGGGGAC
Target sequence (chain): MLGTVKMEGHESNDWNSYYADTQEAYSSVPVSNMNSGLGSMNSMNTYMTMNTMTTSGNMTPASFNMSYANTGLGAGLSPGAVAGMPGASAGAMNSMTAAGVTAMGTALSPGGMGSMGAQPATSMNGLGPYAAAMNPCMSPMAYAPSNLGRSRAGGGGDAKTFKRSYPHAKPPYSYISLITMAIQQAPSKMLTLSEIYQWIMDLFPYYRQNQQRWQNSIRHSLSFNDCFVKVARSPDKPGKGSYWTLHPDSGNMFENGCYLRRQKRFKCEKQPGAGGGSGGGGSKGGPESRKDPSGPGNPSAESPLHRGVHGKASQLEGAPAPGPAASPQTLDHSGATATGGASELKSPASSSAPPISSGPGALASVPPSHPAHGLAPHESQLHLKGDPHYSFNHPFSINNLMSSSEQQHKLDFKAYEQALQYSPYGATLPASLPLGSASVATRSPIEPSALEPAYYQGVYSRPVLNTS
CCCTCATCCTGGGTGTCGGGGTGGGAGGTGTTCTCATCATGAATGGGAGGCGTACCCAGATCCAGCTCTGCCTTTTTTTAACCAAACCAGAGTGTAAACAAATGGCTGTGTGTCACACCATAATCGACATAGCAAGATATGATACATGCCAGGAGAGAAAAAGAAAGTGCTGATGGAAAAATAATCTCATTAG: 0.347 ratio
ATCTTCCCCCTCTTCCTTGCCCCACCAGCTCACCTTCCCGGGTTATTTGCAGATAGGAAAATAAATAAAGCCGGCATTCGTTAACGCAGTTCACGCGCATACTGCTGTTTGCTCTGCATGAATCATGGTCCTTACGCGAGGCGTGGCTCCGGGAGAGCAAAGCACCGTGTCAGGCGCATGATCCGGGCTCGCC: 0.354 ratio
GAAATAAAATGCGATCACTTTTCACAATGATTCTTGGAGAAACCACATAATGGCTAAAGCAGCCTAAAATTACTTGGGATAGGTTAAATAAAGTAATCTTGGCTTATTAGATTTCCATAGAGTTAATAGTCTACATAGTCTAATGTTTTATAGACAAAACCTCTGTCATTCTGTTTTATAGAGTAACTCCTAC: 0.00346 ratio
GTGCTGAATGCATGTAAATTGCTTTCCTTCAAAAATACGTAACTAGGAAGAGCAGAGTACTATGTAATTTTGCTAATCACATGCTTTACTAAGTAATCTAAGAATACTTTAGGATAGATTTTATTTAAAGTCATCACCTTTCATAATCATTTTATTCTGCATCATAATTTCTTAATCAGGTAATGTAATTATA: -0.0151 ratio
TCGGCCAGCCTGGCTTCTGCGCCCCGCCAGGAGGTCGCGGAGCGGAGCGCGGCCAGGAAGTGAGCTGAGAGTGACAGCTCCCCCCACGCGAGAATAAACAAACATCCAATGACTCATTCCACACTGGCTCTTCTTTCTTTCGGGAGGAGGGGAGAAAGGAGCGGGAGGGCGGGCGGGCAGGGGAGAGGCAGGC: 0.31 ratio
CTACATAAAATATCACTTATCAAAGTCTGTTTATGACCTCTTTTAAATCCAGAAATCATACTGCTGTCAATTCATTTTTAGCAGCAATCCTAAGTCAACATGAGTCTATGTATCTTGAGTAATCCTTGGCAGGGTGCAGAGCAGTAAATCATATTTTATTACTCAAGATGGCAGAAGCTAGAGCTATCTGAAA: 0.16 ratio
ATAAAGATATTATGGTTATATAGAAAAATATCCTTATTTTGACGGCTGTACCATTTGAAGTATTTAGGGGACAAATGTCATGATGCCTATCTAAAATTACTTTTAAATTGTTCAGCAAAAATAGCGGTATATAAGTATTTATAATAGATAGTAGATGAATCAAATATGGTCAAATGTTAGTTTTTGTTTTTGA: 0.059 ratio
TTCTGGACGCTGTGAAGAAAACAAAACAATGGACTGTCTTTTAATCGTCCTTAAATAGCTCAGTAAAATTTAAACAATGCTTGCATTCTCTGTGTAAACACAGTGACTGATGCCGAGGCCCCTAGGACTGCTTGGAGCTAATGGGATTAATAAGAATGCCTGAGGGTAACATCTATCACAAATTAATGTTTCC: 0.397 ratio

Mixed results
CCOc1cc(/C=N/n2cnnc2)cc(Cl)c1OCCOc1cc(C)ccc1C(C)C
remaining compound (mouse, microsomes or S9; 2 µM, 0.5 h): 65.4%
